Measured values gathered from unrelated publications.
Numbered parts are unrelated; each lists some results of a single study.

Series 1 — method: RNA Bind-n-Seq; form: RNA; sample: in vitro; tested at: 365 nM; baseline: no-protein control; direction: higher = stronger binding
Target: RNA binding protein fox-1 homolog 2, RRM domain, GST-SBP tag (RBFOX2, Homo sapiens, UniProt O43251-10, residues 100-194)
Setting: natural RNA segment, single round, ends assumed
Residues (chain): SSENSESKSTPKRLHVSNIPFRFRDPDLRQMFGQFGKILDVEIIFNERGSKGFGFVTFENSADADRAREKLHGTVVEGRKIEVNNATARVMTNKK
Oligonucleotide	RBNS enrichment (R)
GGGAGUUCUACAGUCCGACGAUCAAUACGAGUCAGAUGCUGCAGAAAUGUAAGGCACUUCAAGUCACUUAUGGGUUGGCUUGGUUUGGUUUUUCUUAGCACCACCUGGGAUCACAGAGGCUCCUAAGAUACAUUGGAAUUCUCGGGUGCCAA	0.33
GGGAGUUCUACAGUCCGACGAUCAUGGUGCCAUCUGACUUUGAGAGCAUAGAAGUCUUUCCCCAGUCUUCUUCAGGGUCUCCCCCCAACCCAACCCAACCAGAUGCUCCCACUUUUAGACAUCUUGUAAUGAAUGGAAUUCUCGGGUGCCAA	0.677
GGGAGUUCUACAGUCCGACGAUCUCCCAUGGUGUCCUGGCUAUAUGACCUAAAAACCAGCCUUUCCUCCACAAGGCUUUGAGACACAUCCAGAGAUGAGGUGGUAUCAGACCUGUCCUUCCACACCAAAGACAUGGAAUUCUCGGGUGCCAA	0.385
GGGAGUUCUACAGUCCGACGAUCCAUCAUUUGGGGUCGUAUGUUUUAAAGAGUAAAGGAGACGGUGAAGGGAUGUCAGCUAGAGUGUAGAGCCAGGGAGAGACAGCCAGGGAUUCUCGCCUAGCUGAACCAAGUGGAAUUCUCGGGUGCCAA	0.844
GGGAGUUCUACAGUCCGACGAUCGGACCUAGAAGUUGAGUUAUUACUAAAAACUUUGAGUGCGAAGAUAUUACUCAUUAACCAGAUAACAAGUGAAUAUGCUGUAGCAUCAACAUAAUUCAAAAGAGUAAAGAUGGAAUUCUCGGGUGCCAA	0.435

Series 2 — method: protein binding microarray; form: double-stranded DNA, one strand shown; sample: in vitro; tested at: not given; baseline: not given; direction: higher = stronger binding
Target: Histone acetyltransferase KAT6A, winged helix 2, GST fusion (KAT6A, Homo sapiens, UniProt Q92794, residues 85-181)
Setting: 8-mer, flanks averaged, mean of 2 arrays, mostly near background
Residues (chain): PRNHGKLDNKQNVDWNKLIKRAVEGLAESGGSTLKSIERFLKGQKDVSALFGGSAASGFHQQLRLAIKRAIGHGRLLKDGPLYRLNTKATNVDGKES
Oligonucleotide	E-score
CCCCCTAC	-0.209
GTTTCGAA	0.0937
ATTGATAC	0.0952
CCATGGCG	0.147
TCGTCACA	0.00843
AATCATGT	-0.193

Series 3 — method: protein-binding microarray; form: double-stranded DNA, one strand shown; sample: in vitro; tested at: 250 nM; setting: 60-bp whole probe; added: salmon DNA 0.4 mg/ml; baseline: random background probes; direction: higher = stronger binding
Target: Interferon regulatory factor 5, full length, phosphomimetic (IRF5, Homo sapiens, UniProt Q13568-2, residues 1-514, K96S/S451D/S453D/S456D/S462D)
Shared flanks, not repeated: GCCTAGCAC … GTGCTAGGTCTTGATTCGCTTGACGCTGCTG
Oligonucleotide	log fluorescence
TTAGGTCTCCTTTTCTTTTA	0.414 z-score
CCCTGTGTTACTTTCTACTT	2.14 z-score
GACCGACTGCTACTGCTGAC	-0.66 z-score
GACGAGATCAGTATCGAGAC	2.3 z-score
TCAGTTTACATTTTCCAACT	0.816 z-score

Other studies, line by line
Substance	target	test	test system	conditions	how to read	endpoint	value
PhoQ, residues 284 288 289 292 302 303 SIHMAM	PhoP, residues 12 14 15 18 19 LHSVW (Escherichia coli, UniProt P23836)	Sort-seq, refers to: YFP reporter	E. coli	PhoQ-PhoP variant library, added: 10 µM Mg2+	baseline: high Mg2+ state, higher = stronger signaling	fold induction	3.84
